Measurements of several laboratories.
Each line is one published result; not all experiments were run side by side. Values joined by “and” are separate records of one study, mostly repeats; a detail may differ. ± marks the error that the study gave.

`O=C([O-])CN1CCN(CC(=O)[O-])CCN(C(CO)C(O)CO)CCN(CC(=O)[O-])CC1.[Dy+3]` (centres unmarked): “cumulative fecal excretion” 0.4% (ICP-MS; cynomolgus monkey, feces; 5 days post-injection; baseline: dose).
The SUV of `Cc1nc(N)nc2c1C(=O)N[C@@H](c1ccc(F)cc1-c1cccc(O[11CH3])n1)C2` is reported as 5.8 ± 0.3 (ex vivo biodistribution; mouse, U87 subcutaneous xenograft, white blood cells; 60 min, vehicle pretreatment baseline).
Under “intact radiolabelled complex”, `O=C([O-])CN1CCN(CC(=O)[O-])CCN(CC(CCCc2ccccc2[N+](=O)[O-])N(CC(=O)[O-])CC(=O)[O-])CC1.[90Y+3]` (centres unmarked) is recorded as 100% (HPLC; human serum; 72 h, pH 7, 37 °C).
`COc1cc(C=O)cc(OS(=O)(=O)Oc2ccc3c(c2)CC[C@@H]2[C@@H]3CC[C@]3(C)C(=O)CC[C@@H]23)c1OC` has a hydrolysis conversion of 17% (concentration not given, 24 h, pH 4.8).
`CN1CCC[C@]1(C)/C=C/S(=O)(=O)NC(=O)Nc1c2c(cc3c1C(O)CC3)CCC2` (some centres unmarked) gave an AUC(0-24) of 398 µg·h/mL (human, plasma; oral, 100 mg twice daily of parent drug, day 14, metabolite of dosed drug).
`Cc1ccc(CN2C(=O)/C(=N\c3ccc(Cl)cc3Br)c3ccccc32)cc1` gave a haemoglobin of 143 ± 4.91 g/L (mouse, blood; 100 mg/kg).
For `CC(C)(O)c1ncc([S@](N)(=O)=NC(=O)Nc2c3c(cc4c2CCC4)CCC3)s1`, “subjects with adverse events” read 17% (refers to: nervous system disorders; healthy human volunteers; oral, 300 mg single dose, spray-dried dispersion).
The tracer uptake of `CC(=O)N([O-])CCCCCNC(=O)CCC(=O)N([O-])CCCCCNC(=O)CCC(=O)N([O-])CCCCCN.[89Zr+4]` is reported as 0.19 %ID/g (mouse, heart; 1 h).
`CCCCN1C(=O)c2cccc3c(NCCCCCCCCCCN4CCOCC4)ccc(c23)C1=O` has a fluorescence lifetime of 10 ns (dioxane).
For `CN1C(=O)[C@@H](Cc2ccc(O)c(I)c2)NC(=O)CNC(=O)[C@H](Cc2ccc3ccccc3c2)NC(=O)[C@H](CCCNC(=N)N)NC(=O)[C@H]1CCCNC(=O)c1ccc(CNC(=O)CN2CCN(CC(=O)O)CCN(CC(=O)O)CCN(CC(=O)O)CC2)cc1` [lutetium-177 labelled], “absorbed dose coefficient” read 0.0061 mGy/MBq (extrapolation method 2, OLINDA/EXM, refers to: 177Lu radioactivity; human, extrapolated from mice, heart wall).
For `Cc1noc(C)c1Cn1cc(N2C(=O)CN(Cc3cccc(OS(=O)(=O)O)c3)C2=O)cn1`, the plasma concentration was 16 ng/mL (Sprague-Dawley rat, male; oral, 10 mg/kg of parent drug, 24 h).
The recovery of `C=CC(=O)Nc1cc(Nc2nccc(-c3c[nH]c4ccccc34)n2)c(OC)cc1N(C)CCN(C)C` is reported as 90% (storage stability; human plasma; 5 h, -80 °C, low QC level).
`O=C(Nc1cnccc1-c1ccc([18F])cc1)c1ccnc(NC(=O)C2CC2)c1` gave an SUV of 2.21 (mice, transgenic, GSK-3β, early-stage, small intestine; intravenous, dose not given, 120 min, with: tariquidar 15 mg/kg i.v. pre-dose).
`Cc1ncsc1-c1ccc(C(C)NC(=O)C2CC(O)CN2C(=O)C(NC(=O)CCCCCCCCCCN2CCCC(Nc3ncc(Cl)c(Nc4ccccc4S(=O)(=O)C(C)C)n3)C2)C(C)(C)C)cc1` (centres unmarked): “log2 fold change” -1.62 (22Rv1; RNA-seq, refers to: TTC30A mRNA; concentration not given; baseline: DMSO).
`O=C(Nc1cnccc1-c1ccc([18F])nc1)c1ccnc(NC(=O)C2CC2)c1` has an SUV of 0.254 (FVB/NJ mice (both sexes), bone; intravenous, dose not given, 120 min).
`C[N+](C)(CCOCCOCCOCCNC(=S)Nc1ccc(C[C@H]2CN(CC(=O)[O-])CCN(CC(=O)[O-])CCN2CC(=O)[O-])cc1)C[c-]1cccc1.[64Cu+2].[Fe+2].c1cc[cH-]c1` has an absorbed dose of 1.26 µSv/MBq (OLINDA, extrapolated from mouse biodistribution, refers to: total body; adult male human phantom).
Under “AUC(0-24) accumulation ratio”, `CN1CCC[C@]1(C)/C=C/S(=O)(=O)NC(=O)Nc1c2c(cc3c1CCC3)CC=C2` is recorded as 1.6 (human, plasma; oral, 50 mg twice daily of parent drug, metabolite of dosed drug; baseline: day 14 over day 1).
With `C[C@]12C[C@H](c3ccc(S(C)(=O)=O)cc3)C3=C4CCC(=O)C=C4CC[C@H]3[C@@H]1CC[C@@]2(O)C(F)(F)C(F)(F)F` the plasma concentration was 1.52 ng/mL (refers to: compound (parent); healthy human volunteers, pooled plasma; oral, 5 mg daily, day 28, 168 h).
For `CC(C)C[C@H](NC(=O)[C@@H](CCCCNC(=O)[C@@H](Cc1ccccc1)NC(=O)CCCCCCCNC(=O)CN1CCN(CC(=O)O)CCN(CC(=O)O)CCN(CC(=O)O)CC1)NC(=O)[C@H](Cc1ccc(O)cc1)NC(=O)[C@H](CO)NC(=O)[C@H](Cc1c[nH]c2ccccc12)NC(=O)[C@H](Cc1c[nH]cn1)NC(=O)[C@@H]1CCC(=O)N1)C(=O)N[C@@H](CCCNC(=N)N)C(=O)N1CCC[C@H]1C(=O)NCC(N)=O` [indium-111 labelled], the tissue uptake was 0.88 ± 0.2 %ID/g (biodistribution; male athymic nude mice, DU-145 prostate cancer xenograft, tumor; intravenous, 0.037 MBq, 1 h post-injection).
With `Nc1ncc(-c2cc(-c3cnn(CC(F)(F)F)c3)ncc2F)nc1C(=O)NC1CNCC(F)C1` (centres unmarked) the remaining binding was 24% (CDK7; KINOMEscan; 1 µM; baseline: DMSO control).
`COC1CN([C@H]2CC[C@H]([C@@]3(C)Oc4c(Cl)cc(C(=O)NCc5c(SC)cc(C)[nH]c5=O)c(C)c4O3)CC2)C1`: “log2 fold change” 0.539 (RNA-seq, refers to: ACP3 mouse homolog; mouse, HT-1376 xenograft, whole blood; dose not given; baseline: vehicle).
For `C=CC(=O)Nc1cccc(Cn2ncc3cnc(Nc4cnn(CCOC)c4)nc32)c1`, “percent of control” read 85% (MARK4 human; binding, KINOMEscan; 100 nM; lower = stronger binding).
`COc1ccc2c(c1)CCn1c[n+]3c(c1-2)-c1ccc(OC)cc1CC3` — result for “mean platelet volume”: 5.58 ± 0.17 fL (female NSG mice, blood; 6 mg/kg, day 20, 5 days per week).
The Cmax of `C=C(NC(=O)c1csc(-c2nc3c(cc2O)-c2nc(cs2)C(=O)NC(C(C)O)C(=O)NC(=C(C)OC)c2nc(cs2)C(=O)NC2c4nc(cs4)C(=O)NC(COC(=O)c4c5c6c(cccc6n4O)COC(=O)C(OC4CC(C)(O)C(N(C)C)C(C)O4)C2OC5)c2nc-3cs2)n1)C(N)=O` (centres unmarked) is reported as 31800 ng/mL (male cynomolgus monkey, plasma; intravenous, 9 mg/kg, single dose, infusion).
`N#Cc1cc(NC(=O)C2c3ccccc3C(=O)N(CC(F)(F)F)C2c2ccc[n+]([O-])c2)ccc1F` (centres unmarked) gave a maximum Cmax of 2180 ng/mL (human, plasma; concentration not given, single-dose cohorts, interim).
`Cc1cc(-c2ccc(C(=O)[C@@H]3CCCC[C@H]3C(=O)Nc3cnn4c3C(=O)NCC4)cc2)[nH]n1` — result for “cumulative radioactivity recovery”: 6.62% and 4.97% and 4.93% and 6.31% and 5.61% and 6.78% (human, urine; oral, 200 mg, 0-120 h; baseline: dose).
With `O=C([O-])CN1CCN(CC(=O)[O-])CCN(CC(=O)NC[C@H]2CC[C@H](C(=O)N[C@H](Cc3cnc4ccccc4c3)C(=O)NCCCC[C@H](NC(=O)N[C@@H](CCC(=O)O)C(=O)O)C(=O)O)CC2)CCN(CC(=O)[O-])CC1.[64Cu+2]` the tissue uptake was 96 %ID/g (ex vivo gamma counting; 22Rv1 tumour-bearing mice, kidney; intravenous, 0.74 MBq, 2 h post-injection).
With `CC(C)c1cnc(-c2cc(Cl)ccc2F)cc1Nc1ccncc1C(=O)NC(CO)CO` the Tmax was 12 h (female C57BL/6 mice, plasma; oral, 100 mg/kg twice daily, day 1, MC-38 tumour-bearing).
`CCN(CC)c1ccc2c(c1)O[B-]1(c3ccccc3)OC(=O)C(c3ccccc3)=N[N+]1=C2C(C)C` (centres unmarked): “hydrolysis activation energy” 23.7 kcal/mol (UV/vis decay; aqueous buffer).
`CN(C)C(=O)c1cccc(N2Cc3cn(Cc4ccc(F)c(F)c4)nc3C2)c1` gave a half-life of 1.3 h (metabolic stability; human, liver microsomes).
`Cc1nn(-c2nc3c(F)cc(F)cc3s2)c(O)c1C(c1ccc(C(F)(F)F)cc1)c1c(C)nn(-c2nc3c(F)cc(F)cc3s2)c1O` gave a terminal half-life of 5.96 h and 3.46 h and 2.79 h (ICR mouse, plasma; oral, 50 mg/kg).
`CCC1=[N+]2N=C(/C=C/C=C/c3ccccc3)C(=O)O[B-]2(c2ccccc2)Oc2cc(N(CC)CC)ccc21` (centres unmarked) — result for “hydrolysis activation energy”: 24.4 kcal/mol (UV/vis decay; aqueous buffer).

For quick reference, copied from above:
`Cc1ncsc1-c1ccc(C(C)NC(=O)C2CC(O)CN2C(=O)C(NC(=O)CCCCCCCCCCN2CCCC(Nc3ncc(Cl)c(Nc4ccccc4S(=O)(=O)C(C)C)n3)C2)C(C)(C)C)cc1` (centres unmarked): “log2 fold change” -1.62 (22Rv1; RNA-seq, refers to: TTC30A mRNA; concentration not given; baseline: DMSO).
`N#Cc1cc(NC(=O)C2c3ccccc3C(=O)N(CC(F)(F)F)C2c2ccc[n+]([O-])c2)ccc1F` (centres unmarked) gave a maximum Cmax of 2180 ng/mL (human, plasma; concentration not given, single-dose cohorts, interim).
